Experimental data collected from several papers.
Cell line: COLO 205

Structure (SMILES)	read-out	method	concentration	time	relative to	quantity	result
CC(=O)OC[C@H]1O[C@@H](Sc2sc(C(=O)c3ccc(Br)cc3)c(N)c2-c2nc3ccccc3s2)[C@H](OC(C)=O)[C@@H](OC(C)=O)[C@H]1OC(C)=O	–	SRB	10 µM	48 h	untreated	growth	94.1%
CC/C=C\C/C=C\C/C=C\C/C=C\C/C=C\C/C=C\CCC(=O)Nc1ccn(C2OC(CO)C(O)C2(F)F)c(=O)n1 (stereo not shown)	cell growth or viability	SRB	–	–	–	GI50	0.143 µM
O=C(CNc1nnc(-c2ccccc2)s1)N1CCC(=C2c3ncccc3CCc3cc(Cl)cc(Br)c32)CC1	cell growth or viability	SRB	–	–	–	IC50	> 120 µM
COc1cc(CNC(=O)C[C@H](C)CCC=C(C)C)ccc1OCc1cn(-c2ccc(Cl)c(Cl)c2)nn1	–	SRB	10 µM	48 h	–	growth percent	53.6%
O=C(CN1CCN(c2nsc3ccccc23)CC1)N1CCC(=C2c3ncccc3CCc3cc(Cl)cc(Br)c32)CC1	cell growth or viability	SRB	–	–	–	IC50	90 µM
CCOC(=O)C1=C(C)NC(=O)N[C@@H]1/C=C/c1ccc(OC)cc1	cell growth or viability	MTT	–	24 h	–	IC50	14.7 µM
COc1cc(CNC(=O)C[C@H](C)CCC=C(C)C)ccc1OCc1cn(-c2cccc(C(F)(F)F)c2)nn1	–	SRB	10 µM	48 h	–	growth percent	74.2%
CC(Cc1ccc(Cl)cc1)=C(c1ccc(Cl)cc1)c1ccc(OCCN(C)C)cc1	cell growth or viability	SRB	–	–	–	GI50	1 µM
Clc1cc(Br)c2c(c1)CCc1cccnc1C2=C1CCNCC1	cell growth or viability	SRB	–	–	–	IC50	60 µM
COc1cc(CNC(=O)C[C@H](C)CCC=C(C)C)ccc1O	–	SRB	10 µM	48 h	–	growth percent	106%
O=C(CSc1nnc(-c2ccccc2)o1)N1CCC(=C2c3ncccc3CCc3cc(Cl)cc(Br)c32)CC1	cell growth or viability	SRB	–	–	–	IC50	> 120 µM
COc1cc(CNC(=O)C[C@H](C)CCC=C(C)C)ccc1OCc1cn(-c2cccc(Cl)c2)nn1	–	SRB	10 µM	48 h	–	growth percent	103%
CC(=O)OC[C@H]1O[C@@H](Sc2sc(C(=O)c3ccc(C)cc3)c(N)c2-c2nc3ccccc3s2)[C@H](OC(C)=O)[C@@H](OC(C)=O)[C@@H]1OC(C)=O	–	SRB	10 µM	48 h	untreated	growth	82.1%

Some of these lines once more:
Structure (SMILES)	read-out	method	concentration	time	relative to	quantity	result
Clc1cc(Br)c2c(c1)CCc1cccnc1C2=C1CCNCC1	cell growth or viability	SRB	–	–	–	IC50	60 µM
CC(=O)OC[C@H]1O[C@@H](Sc2sc(C(=O)c3ccc(C)cc3)c(N)c2-c2nc3ccccc3s2)[C@H](OC(C)=O)[C@@H](OC(C)=O)[C@@H]1OC(C)=O	–	SRB	10 µM	48 h	untreated	growth	82.1%
